Measurements from different studies.
A part holds a random share of what one study measured.
Sequence of UniProt Q7Z7E8 (whole entry, looked up): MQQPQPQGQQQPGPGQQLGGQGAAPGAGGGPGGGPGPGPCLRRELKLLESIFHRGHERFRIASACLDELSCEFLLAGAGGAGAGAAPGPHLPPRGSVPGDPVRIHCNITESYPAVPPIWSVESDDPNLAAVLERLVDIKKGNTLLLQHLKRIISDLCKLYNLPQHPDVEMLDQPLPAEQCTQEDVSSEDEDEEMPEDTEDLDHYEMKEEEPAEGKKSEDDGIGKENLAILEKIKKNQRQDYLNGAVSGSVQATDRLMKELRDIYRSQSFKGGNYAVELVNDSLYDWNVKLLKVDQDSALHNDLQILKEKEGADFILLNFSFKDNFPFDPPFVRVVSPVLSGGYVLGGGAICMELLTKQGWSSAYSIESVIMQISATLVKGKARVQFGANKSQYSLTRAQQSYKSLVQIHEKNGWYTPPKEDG
Sequence of UniProt Q9C0C9 (whole entry, looked up): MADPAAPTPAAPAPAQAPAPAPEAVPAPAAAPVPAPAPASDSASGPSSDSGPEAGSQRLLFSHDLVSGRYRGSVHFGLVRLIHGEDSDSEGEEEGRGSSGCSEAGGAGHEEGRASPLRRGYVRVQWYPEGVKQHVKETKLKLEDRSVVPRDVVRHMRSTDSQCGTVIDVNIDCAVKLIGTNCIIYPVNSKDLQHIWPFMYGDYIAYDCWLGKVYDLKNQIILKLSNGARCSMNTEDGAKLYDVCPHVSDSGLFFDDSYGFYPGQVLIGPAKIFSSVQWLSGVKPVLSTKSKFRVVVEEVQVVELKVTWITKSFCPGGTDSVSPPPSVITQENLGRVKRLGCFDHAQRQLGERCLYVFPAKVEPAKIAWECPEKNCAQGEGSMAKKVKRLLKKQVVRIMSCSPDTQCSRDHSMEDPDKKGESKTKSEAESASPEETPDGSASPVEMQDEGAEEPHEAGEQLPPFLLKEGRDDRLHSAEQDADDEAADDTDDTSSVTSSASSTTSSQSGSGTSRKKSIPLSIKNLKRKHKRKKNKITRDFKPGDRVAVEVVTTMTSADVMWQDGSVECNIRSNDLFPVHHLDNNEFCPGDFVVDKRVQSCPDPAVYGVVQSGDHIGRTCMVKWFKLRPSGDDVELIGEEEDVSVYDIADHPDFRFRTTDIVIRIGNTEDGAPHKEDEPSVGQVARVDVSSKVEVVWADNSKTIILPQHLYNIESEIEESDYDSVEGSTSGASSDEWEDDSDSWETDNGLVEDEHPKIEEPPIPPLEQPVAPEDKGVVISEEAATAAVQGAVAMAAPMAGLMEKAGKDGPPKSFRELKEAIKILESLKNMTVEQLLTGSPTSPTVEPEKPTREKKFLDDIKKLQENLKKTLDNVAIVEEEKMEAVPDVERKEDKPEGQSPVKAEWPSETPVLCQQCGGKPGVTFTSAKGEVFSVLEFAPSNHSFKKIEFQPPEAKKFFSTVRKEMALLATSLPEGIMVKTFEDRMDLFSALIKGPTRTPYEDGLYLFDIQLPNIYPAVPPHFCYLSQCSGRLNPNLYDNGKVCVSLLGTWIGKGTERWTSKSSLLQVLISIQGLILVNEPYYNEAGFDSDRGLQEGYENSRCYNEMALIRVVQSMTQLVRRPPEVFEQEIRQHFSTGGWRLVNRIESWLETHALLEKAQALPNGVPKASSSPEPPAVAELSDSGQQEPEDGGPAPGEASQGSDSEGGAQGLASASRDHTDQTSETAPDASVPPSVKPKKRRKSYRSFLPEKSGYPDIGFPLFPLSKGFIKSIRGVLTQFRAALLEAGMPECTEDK
Sequence of UniProt Q8N2K1 (whole entry, looked up): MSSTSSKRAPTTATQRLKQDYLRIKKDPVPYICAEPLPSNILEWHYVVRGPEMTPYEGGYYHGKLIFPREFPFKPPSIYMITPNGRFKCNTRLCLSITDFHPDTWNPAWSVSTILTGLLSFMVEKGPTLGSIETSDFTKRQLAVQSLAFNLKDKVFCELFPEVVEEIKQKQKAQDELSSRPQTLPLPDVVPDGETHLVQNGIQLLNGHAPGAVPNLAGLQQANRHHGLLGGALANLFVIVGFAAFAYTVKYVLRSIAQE
Sequence of UniProt P51668 (whole entry, looked up): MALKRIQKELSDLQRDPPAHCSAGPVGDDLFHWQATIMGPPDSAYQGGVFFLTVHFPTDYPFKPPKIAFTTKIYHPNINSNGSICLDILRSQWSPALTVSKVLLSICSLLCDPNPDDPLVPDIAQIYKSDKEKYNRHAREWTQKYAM
Sequence of UniProt P61081 (whole entry, looked up): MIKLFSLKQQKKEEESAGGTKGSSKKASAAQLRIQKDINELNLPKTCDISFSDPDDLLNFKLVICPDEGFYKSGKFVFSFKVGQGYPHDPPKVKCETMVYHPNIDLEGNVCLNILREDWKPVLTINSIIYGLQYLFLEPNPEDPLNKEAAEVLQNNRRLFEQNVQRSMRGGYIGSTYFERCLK
Sequence of UniProt Q9Y385 (whole entry, looked up): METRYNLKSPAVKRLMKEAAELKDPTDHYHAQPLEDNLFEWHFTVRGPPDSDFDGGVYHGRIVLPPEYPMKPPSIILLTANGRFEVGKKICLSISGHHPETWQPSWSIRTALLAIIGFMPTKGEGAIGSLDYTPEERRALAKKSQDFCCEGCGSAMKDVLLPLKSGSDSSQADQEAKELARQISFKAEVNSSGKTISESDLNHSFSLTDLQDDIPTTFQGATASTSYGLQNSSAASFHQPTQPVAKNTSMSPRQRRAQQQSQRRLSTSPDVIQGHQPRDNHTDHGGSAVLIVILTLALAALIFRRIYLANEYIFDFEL

Sample 1 — method: competition protein-binding microarray; form: double-stranded DNA, one strand shown; matrix: in vitro; tested at: 2 µM; with: Cbf1 competitor, 0.05 µM; direction: higher = stronger binding; all sequences stand within: … GTCTTGATTCGCTTGACGCTGCTG
Target: Phosphate system positive regulatory protein PHO4, full length, GST-tagged (PHO4, Saccharomyces cerevisiae, UniProt P07270, residues 1-312)
Notes: whole 60-bp probe, lowest competitor level
Construct (chain): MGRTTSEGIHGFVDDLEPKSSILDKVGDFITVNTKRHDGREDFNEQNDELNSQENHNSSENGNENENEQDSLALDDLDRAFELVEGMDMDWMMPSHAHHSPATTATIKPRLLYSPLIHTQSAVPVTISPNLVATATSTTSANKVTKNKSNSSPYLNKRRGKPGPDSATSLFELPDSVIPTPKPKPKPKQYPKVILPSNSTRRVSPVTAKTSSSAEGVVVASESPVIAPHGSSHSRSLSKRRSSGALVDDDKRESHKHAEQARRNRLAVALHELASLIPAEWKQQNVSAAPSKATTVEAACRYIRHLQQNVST
Oligonucleotide	fluorescence intensity [a.u.]
GTCTTGTCTCATTGTAAGGTGGGTGTCCCCACTTCA	4790
TGCTGGATTAGGGAACACGTGGAAAGGGCTAGACCA	14500
TTCATGGTTCTTTCACACGTGAGCCTTCCTCGGAGG	14200
TATTGAAGGTACCATCACATGCTTACTCACTTTGCG	8720
AAATTACTAAGTTGTAAAGTGGGTGACGCCGTATGA	4000
ATCCCATTGGGTAAAAACGTGGTCGTCAAATGGCAA	13900
TGCTATCCCGGCGAGCCCGTGGCCGAGGACCTCGCT	7940
AAATTACTAAGTTGTCACGCGACTTACCCCGTATGA	7370
TGCCCAAAGCTCTGGCACGTATGAAACTGCTTTTCG	4870
TACCGGATGCAATCGCACGGGCACTAGCCTGTGCCT	7440
CTTGGAGACACCCTTCACGGGCCGCCCGGGTATCCG	4110
AAATGCAGCCAAAGATGCGTGCCGATGCAGTTAGCT	7350
CGGGGTTAAGTTTGTCGCGTGGGTGGCTTGCAGCAG	9200
TAAACTCACCTAATTCGCATGACAAGGTCCCTGAAA	4770
ACTCTTGGCCAAAGACCCGTGGTGAAGCCATGAATC	8680
GCCTCCGAAGATTGGGACGTGCCAGCGGAGCAAGTT	6230
AAATTACTAAGTTGTCGTGTGGGTGACGCCGTATGA	4990
TACTCCACTGCTCCACACGTTGTTGCTGCTGTTATG	14300
CGCAGCCTCTACCGTCACGTGTAACAGTACGGCAGG	13300

Sample 2 — method: RNA Bind-n-Seq; form: RNA; matrix: in vitro; tested at: 365 nM; relative to: no-protein control; direction: higher = stronger binding
Target: RNA binding protein fox-1 homolog 2, RRM domain, GST-SBP tag (RBFOX2, Homo sapiens, UniProt O43251-10, residues 100-194)
Notes: natural RNA segment, single round, ends assumed
All sequences stand within: GGGAGUUCUACAGUCCGACGAUC … UGGAAUUCUCGGGUGCCAA
Construct (chain): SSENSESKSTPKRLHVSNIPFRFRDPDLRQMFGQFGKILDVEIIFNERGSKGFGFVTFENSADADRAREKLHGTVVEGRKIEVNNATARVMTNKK
Oligonucleotide	RBNS enrichment (R)
AGCAGCUUAAACAGCACUUUUAAUUAACUCCUAAACAUUACAUGGUGGGACUGUGGAGACUCCGUUAAGACAGGAGCUUGUCAGAGGUGGACAACACGAAGAUUUCCUUU	0.635
GUUCUUUUAUAAAGAUAUGGAUUGGUUUACCAGCUGUUUAAAAAAAAAAACAUGUGUCCUAGCUGGGCAUAGUGGUGCAUACCUUUAAUCCCAGCACUUGGGAGGCAGAG	0.336
GGUAUAUAUUUUUGUUAUCAGGUGCAUGUCUGUCUGAUUUCCUUUUCUUCUCGUUGGGACUAUGUUUGUGAACAUGAGCGUCAUAAGUUAUGUUUCAGAUUUUCAAAUUU	26.6
UCCUCCAGCCCUUCAGACGAGAUCCUGUUUCAGCUAAAUGCAGGGAAACUCAAUGUUUUUUUAAGUUUUGUUUUCCCUUUAAAGCCUUUUUUUAGGCCACAUUGACAGUG	0.393
UGAGUCCCGAGACCAGUUGGGUACCUCUCUAUGCGAACCAGAGACAUUUCUGGAUCCAGGCCAGGUGAAGAUUAGGGCCAGGAAGCCUGAGCCCCCGGGGCCUCAAGGUA	0.323
AUUUAUUUUGAUCUUUAAUUUCUCUCAGCAAUGUUGUAUAAUAUCAGAAUAUGUCUUGUACUUCUAUGGUUAAAAUUAGUACUGCUUUCUCUCGUGAAUGGAGCUGUUUU	0.656
CAGAAAAGACUUCUUAAAUCCACUCCAGGGAAUACUUGAAAGGCAAGUCAUUGUGACUAACACUUCAGUUCAUUGGCCCAUGAUCAUUUCAGAUUUUAACAGCUGUUACU	0.401
CCUGAGCUCUAGUUUUAAACUUUCUCCUGUUAAAAAAAUUGUACUUUUAUUUCAUGUAAACUGCCCCUCUGAGGAUUUGGGCAUAUUUUUUGGAAGGUGCCUAAUGCUUA	1.18

Sample 3 — method: protein binding microarray; form: double-stranded DNA, one strand shown; matrix: in vitro; tested at: not given; relative to: not given; direction: higher = stronger binding
Target: Histone acetyltransferase KAT6A, winged helix 2, GST fusion (KAT6A, Homo sapiens, UniProt Q92794, residues 85-181)
Notes: 8-mer, flanks averaged, mean of 2 arrays, mostly near background
Residues (chain): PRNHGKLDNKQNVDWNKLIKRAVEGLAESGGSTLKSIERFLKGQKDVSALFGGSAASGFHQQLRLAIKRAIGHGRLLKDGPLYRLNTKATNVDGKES
Oligonucleotide	E-score
GGAGATGA	0.00971
AGGATCCG	-0.0804
ATGCCGGC	0.248
CGGCATTC	0.13
AAATGGCT	-0.222
CCAAAGGG	0.131
AAGGAGTG	-0.168
TGGACCAA	-0.074
ACACCATG	-0.0709
ATAGGTTG	-0.15
GACTCGCA	0.125
AGGGCACT	-0.135
ATTAGAAC	0.0663
TATTTCAA	0.0201
ATTCGTAC	0.105
CTTTGTAA	0.137
CCCCCGAG	0.0332
CGATCACC	0.0549
GTAACGAC	-0.101
TACATTCA	-0.168
ATCATATC	0.156
AATTAGTC	-0.0672
GAGTTACC	-0.0471
CCGGCTTC	0.255
CACAGGTG	-0.0183

Sample 4 — method: yeast two-hybrid; matrix: yeast; notes: mostly zero background; relative to: not given; direction: higher = stronger interaction
Molecule: QLRRLQEERTCKVCLDRAVSIVFVPCGHLVCAECAPGLQLCPICRAPVRSRVRTF (BIRC7 RING domain (UniProt Q96CA5))
target	lacZ reporter activity
UBE2D1 UBC core domain (UniProt P51668)	0
UBE2M UBC core domain (UniProt P61081)	0
UBE2Q1 UBC core domain (UniProt Q7Z7E8)	0
UBE2J2 UBC core domain (UniProt Q8N2K1)	0
UBE2J1 UBC core domain (UniProt Q9Y385)	0
UBE2O UBC core domain (UniProt Q9C0C9)	0
BIRC6 UBC core domain (UniProt Q9NR09)	0

Sample 5 — method: protein-binding microarray; form: hairpin DNA; matrix: in vitro; tested at: not given; relative to: not given; direction: higher = stronger binding
Target: Runt-related transcription factor 3, Runt domain (RUNX3, Homo sapiens, UniProt Q13761, residues 53-186)
Sequence of UniProt Q13761 (53-186, looked up): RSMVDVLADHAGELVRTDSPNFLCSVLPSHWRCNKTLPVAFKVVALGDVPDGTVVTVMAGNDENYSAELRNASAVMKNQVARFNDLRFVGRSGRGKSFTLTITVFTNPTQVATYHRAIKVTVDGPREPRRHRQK
Notes: whole hairpin DNA, median over replicate spots
Oligonucleotide	median fluorescence [a.u.]
CTCAGTTCTGTGGGCCGGACTCCTGTCCGGCCCACAGAACTGAGACACTC	4440
GAGGCCTGTCGGGGTTGGCCTCCTGGCCAACCCCGACAGGCCTCACACTC	5540
GAGGCCTGTTGCGCTTGGCCTCCTGGCCAAGCGCAACAGGCCTCACACTC (5mC at 14)	4800
GAGGCCCGACCGCAACAGCCTCCTGGCTGTTGCGGTCGGGCCTCACACTC	8710
GAGGCCTGTCGCGCGTGGCCTCCTGGCCACGCGCGACAGGCCTCACACTC (5mC at 14)	5680
CTCAGTTCTGCGGGCTGGACTCCTGTCCAGCCCGCAGAACTGAGACACTC (5mC at 33)	4420
GAGGCCTGTTGTGGCTGGCCTCCTGGCCAGCCACAACAGGCCTCACACTC (5mC at 15)	5000
GAGGCCTGTCGCGGTTGGCGTCCTCGCCAACCGCGACAGGCCTCACACTC (5mC at 25)	6440
GAGGCCCCACCGCAACAGCCTCCTGGCTGTTGCGGTGGGGCCTCACACTC	6920
CTCAGTTCTGTGGGCGGGACTCCTGTCCCGCCCACAGAACTGAGACACTC (5mC at 29)	4130
CTCAGTTCTGTGGGCGGGACTCCTGTCCCGCCCACAGAACTGAGACACTC (5mC at 15 29)	4450
GAGGCCCGACCGCAACAGCCTCCTGGCTGTTGCGGTCGGGCCTCACACTC (5mC at 7 37)	8350

A few entries again (sample 3):
Oligonucleotide	E-score
ATAGGTTG	-0.15
GACTCGCA	0.125
AGGGCACT	-0.135
ATTAGAAC	0.0663
TATTTCAA	0.0201
ATTCGTAC	0.105
CTTTGTAA	0.137
CCCCCGAG	0.0332
CGATCACC	0.0549
